Measured values of several laboratories.
Each numbered part is a random draw from the data of one study; scales do not carry over between parts.

Sample 1 — method: RNA Bind-n-Seq; molecule type: RNA; sample: in vitro; concentration: 365 nM; reference: no-protein control; direction: higher = stronger binding; endpoint: RBNS enrichment (R)
Target: RNA binding protein fox-1 homolog 2, RRM domain, GST-SBP tag (RBFOX2, Homo sapiens, UniProt O43251-10, residues 100-194)
Setting: natural RNA segment, single round, ends assumed
All sequences stand within: GGGAGUUCUACAGUCCGACGAUC … UGGAAUUCUCGGGUGCCAA
Construct (chain): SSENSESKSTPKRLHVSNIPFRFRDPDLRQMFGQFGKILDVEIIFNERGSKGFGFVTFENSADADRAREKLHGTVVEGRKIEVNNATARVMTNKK
AGUGAUUGUAGUUUCAUGUUAAUAUGUGGCAAAAUAUUUUUGUAAUUAUUUUCUAAUCCCUUUCUGAGUACUCUGGGGCCCUGCAUUUAUGAGGCACCUACCUUCAUUUU: 2.4
CACAAAUGAAUAUCUCAAUUACAUUUGGGUUCCAUUCUCAAGAUAUUUUAUUAUGUAUAUUCAAUUCAAAUAUUCUAAUGUCUAGAAAAAUGAAAACCCUGGAUAUUCUG: 0.488
UCUAAAAAAAUUAAAAAAUAACAGAGCAUUGACUCCAGUAGAUUAGAGUUUAAGUGUUUGCUCUUUCCCCGAAGUCUUUAAAGGACCUUGAAGCAGGUCACCAUGCUUGC: 0.392
UCUUCCUGCCUCCCCGUGGGAAGCCUCCGCCCUGAGGUCCGCUGGCCCACCACCCCUGGGUGCUCAGUUUCUACCAACAUGAGCCAGCAAGUCCUUGUGGUAGCCCUGGG: 0.316
CACAUGUAUAAAGAUGUUCACAGAGAAAGAUGCUCUGUAGAGAAUUUGCUACCGAAGUUGGCUCAAGAAUUUGUUUUUAGUGUUAUUUACCAAGAUUAGGACGUCAGUGG: 0.463
GUGAUGCAUUCAAACUGUCUAGCAAUAGAUCUUUUAAAACGAUGUAAAACCAUUCAGGGUAAUUUUUCUUGUCAGUGGCCAGUGGCAUCCCUGACCUCCAGAAAGAAGCC: 0.995
GUCUGGCAACGCCCACAGUUACCACAACACAGAAAACUGAUCGUGCUAUAAAAUGGACGCUAAACUAUGAAAACAGUGUGACAUUGUUCUCUGUUCUUCCAGAGCCAGUA: 0.276
UGAGUACUGAUUUCAUGUUGAAUUGUAUCCCACACAUCAUGGUCUGCAGCUUCUUUUUCACAUGUAGUGUCUCCUUCAAGUUACAUCGUGUGUAUUAUUUAAUGUCACUA: 0.388
UAUUACUAGCUAGUAUUAGGUUGAAGUUGGGGGUGGGGGCUUUCUCCGUAGGCUUGGGGAUGGUUCCCUCAAAGUGAGCCACUAUUAGAUUUGCCCAUCAGGGGAAAAGA: 0.388

Sample 2 — method: protein-binding microarray; molecule type: double-stranded DNA, one strand shown; sample: in vitro; concentration: not given; direction: higher = stronger binding; endpoint: E-score
Target: Protein C-ets-1 (ETS1, Homo sapiens, UniProt P14921, residues 1-441, Y397A, full length assumed)
Setting: k-mer, scored over probes, only values ≥0.25
Residues (chain): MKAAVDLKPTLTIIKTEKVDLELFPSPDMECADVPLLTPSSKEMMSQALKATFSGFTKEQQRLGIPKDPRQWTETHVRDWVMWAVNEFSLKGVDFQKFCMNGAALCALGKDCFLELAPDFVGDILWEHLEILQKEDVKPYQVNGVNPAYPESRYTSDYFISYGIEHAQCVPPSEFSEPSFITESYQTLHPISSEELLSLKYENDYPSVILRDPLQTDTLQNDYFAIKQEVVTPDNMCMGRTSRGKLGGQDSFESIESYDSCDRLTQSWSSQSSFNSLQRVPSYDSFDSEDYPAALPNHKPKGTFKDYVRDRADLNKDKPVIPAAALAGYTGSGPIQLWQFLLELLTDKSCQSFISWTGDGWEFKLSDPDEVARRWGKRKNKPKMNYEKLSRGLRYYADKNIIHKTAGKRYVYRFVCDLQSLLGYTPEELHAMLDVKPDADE
ATTATGCG: 0.256
ACAATCGC: 0.254
CAGTACAC: 0.276
TGTCAACA: 0.317
TGACACAA: 0.355
GGCGACAA: 0.251
GTGACACA: 0.285
GTACACAA: 0.273

Sample 3 — method: RNA Bind-n-Seq; molecule type: RNA; sample: in vitro; concentration: 200 nM; setting: whole 134-nt RNA, ends assumed; with: 150 mM LiCl; reference: input library; direction: higher = stronger binding; endpoint: log2 enrichment; each molecule: 7-deaza-guanosine replaces G
Target: Fragile X messenger ribonucleoprotein 1, C-terminal low-complexity region (Fmr1, Mus musculus, UniProt P35922)
All sequences stand within: GGGAGUUCUACAGUCCGACGAUC … UGGAAUUCUCGGGUGUCAAGG
UCAAGUCCUGUGCUACACAUCGUAUGUACCGAAUCGGUUGGGGUUGGGGUUGGGGAAAGUAUUAUGUUACGCCGUUCGGAUCUGCACUUC: -1.3
CACAGACAACACGCACCCACACAGACACAGAGGGAAGGGGUUGGGAUGGGGACAGGGUGCACUGCAGGGCGGGGUAGGACCCCAGCCCCU: -0.922
UCCUCAAGUCCUGUGCUACACAUCGUAUGUACCGAAUCGGUGGUGGGGUGGAAAGUAUUAUGUUACGCCGUUCGGAUCUGCACUUCCAGC: 0.473
CACAGACAACACGCACCUACACAGACACAGAGGGAAGGGGUUGGGAUGGGGACAGGGUGCACAGCAGGGCGGGGUAGGACCCCAGCCCCU: 0.733
CAAGUCCUGUGCUACACAUCGUAUGUACCGAAUCGGCCCCGGCCCCGGGCCCCGGGAAAGUAUUAUGUUACGCCGUUCGGAUCUGCACUU: -1.78
CACAGACAACACGCACCCACUCAGACACAGAGGGAAGGGGUUGGGAUGGGGACAGGGUGCACAGCAGGGCGGGGUAGGACCCCAGCCCCU: -0.0649
UCUCCCCAGGAGCACAGAAAAUGGUUCUGCCCCCUCCACAGCUCCCACAGACCAGAGCCGGCCACCGUUGGAGGUGAGUCGCCCGCCCCU: 1.85

Further values, each from its own experiment
PhoQ, residues 284 288 289 292 302 303 SACGEM — fold induction (PhoP, residues 12 14 15 18 19 LFHKL (Escherichia coli, UniProt P23836); Sort-seq, item: YFP reporter; E. coli; PhoQ-PhoP variant library, with: 10 µM Mg2+; reference: high Mg2+ state, higher = stronger signaling): 9.77

Excerpt of the above (sample 2):
GTACACAA: 0.273
TGTCAACA: 0.317
TGACACAA: 0.355
CAGTACAC: 0.276
